Published values of several laboratories.
Compare with care: the assays were run in different laboratories.

CC(=O)N(C)[C@H]1CCN(C(=O)c2cnc3c(c2)C[C@](C)(c2ccc(F)cc2)N3)C1  subjects with any AE (healthy male human; oral, 60 mg once daily, multiple rising dose, with: midazolam): 62.5%
Cc1ncc2n1-c1ccc(Cl)cc1C(c1ccccc1F)=NC2  subjects with TEAEs (measured: investigations (SOC); humans; oral, dose not given): 0%
Cn1c(-c2ccc(C(N)=O)cc2F)nnc1C(C)(C)Oc1c(F)cc(Cl)cc1F  subjects with drug-related TEAE (human; oral, 30 mg, single ascending dose): 16.7%
C=C(C)[C@@H]1CCC(C)=C[C@H]1c1c(O)cc(CCCCC)cc1O  subjects with AEs (human; 750 mg, trial 17075, with: fluconazole 400 mg): 19%
Cc1ncc2n1-c1ccc(Cl)cc1C(c1ccccc1F)=NC2  subjects with treatment-related TEAE (human; oral, dose not given): 17.9%
C[C@]1(CO)Cc2ncn(-c3ccc(C#N)c(Cl)c3)c2C(=O)O1  subjects with any TEAE (human; 5 mg single dose): 28.6%
CC[C@H]1[C@@H](O)[C@@H]2[C@H](CC[C@]3(C)[C@@H]([C@H](C)CCNC(=O)NS(=O)(=O)c4ccc(C(C)(C)C)cc4)CC[C@@H]23)[C@@]2(C)CC[C@@H](O)C[C@@H]12  subjects with TEAEs (human; dose not given, drug interaction study): 21%
COc1ccc2c(c1)[C@]13CCCC[C@@H]1[C@H](C2)N(C)CC3  subjects with TEAE (human; oral, dose not given): 17.9%
NCCCC[C@@H]1NC(=O)[C@@H](Cc2c[nH]c3ccccc23)NC(=O)[C@H](c2ccccc2)NC(=O)[C@@H]2C[C@@H](OC(=O)NCCN)CN2C(=O)[C@H](Cc2ccccc2)NC(=O)[C@H](Cc2ccc(OCc3ccccc3)cc2)NC1=O  subjects with abdominal distension (healthy human volunteers; 600 µg twice daily): 5%
CCCCCCCCCCCCCCCC(=O)N[C@@H](CCC(=O)NCCCC[C@@H]1NC(=O)[C@H]([C@@H](C)CC)NC(=O)[C@@H](NC(=O)[C@@H]2CCCN2C(=O)[C@H](Cc2ccccc2)NC(=O)[C@H](Cc2c[nH]cn2)NC(=O)[C@@H](NC(=O)[C@H](CC(=O)O)NC(=O)CC(C)C)[C@@H](C)O)CSSC[C@@H](C(=O)N[C@@H](CCCCN)C(N)=O)NC(=O)CNC(=O)[C@H](CCCCN)NC(=O)[C@H](CO)NC(=O)[C@H](CCCNC(=N)N)NC(=O)[C@@H]2CCCN2C(=O)[C@H](CCC(=O)O)NC(=O)[C@H](Cc2ccccc2)NC1=O)C(=O)O  subjects with injection-site reactions (healthy human; dose not given): 28%
CNC(=O)n1ccc2cc(Oc3ccnc(NC(=O)c4ccc(C5CCN(CCO)CC5)cc4)c3)c(OCCOC)cc21  subjects with TEAEs (healthy human; oral, 35 mg, fasted): 21.4%
O=c1ccc2ncc(=O)n3c2n1C[C@H]3CN1CCC(NCc2cc3c(cn2)OCCC3)CC1  subjects with abdominal pain (healthy humans; oral, 1500 mg, with: rifampicin 600 mg): 6%

For quick reference, copied from above:
C[C@]1(CO)Cc2ncn(-c3ccc(C#N)c(Cl)c3)c2C(=O)O1  subjects with any TEAE (human; 5 mg single dose): 28.6%
